Results from different studies.
Several values in a cell are separate wells, animals, samples, runs or records. ± marks the error that the study gave.
UCHL1: Ubiquitin carboxyl-terminal hydrolase isozyme L1 (UCHL1, Homo sapiens, UniProt P09936)
ADRA2C: Alpha-2C adrenergic receptor (ADRA2C, Homo sapiens, UniProt P18825)
Voltage-dependent P/Q-type calcium channel subunit alpha-1A: Voltage-dependent P/Q-type calcium channel subunit alpha-1A (Homo sapiens, UniProt O00555)
T1: G-quadruplex DNA (Homo sapiens); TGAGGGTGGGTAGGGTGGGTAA
T2: G-quadruplex DNA, intermolecular, 8-nt strands; chain GGAAGGGG; chain GGTTGGGG

O=c1nc(SCc2cc(F)cc(C(F)(F)F)c2)nc(SCc2csc3ccc(Cl)cc23)[nH]1
mean relaxed DNA (TOP2A (Homo sapiens, UniProt P11388); DNA relaxation; 7.8 µM): 66.2%

Cc1cc(Nc2cc(N3CCN(C)CC3)nc(Sc3ccc(NC(=O)C4CC4)cc3)n2)[nH]n1
remaining activity (PDGFRB (Homo sapiens, UniProt P09619); kinase activity, KinaseProfiler; 0.03 µM, species human; relative to: control): 108%

Cc1ccc(C=C(C#N)C(=O)Nc2ccccc2C(F)(F)F)cc1
labelling (UCHL1; covalent, intact protein LC-MS; 12.5 µM): 9.26%

CC[C@@H]1[C@H](F)C(=O)N[C@@H]1COc1nccc2cc(C(N)=O)c(OC)cc12
inhibition (LATS2 (Homo sapiens, UniProt Q9NRM7); ATP-site probe binding, ActivX profiling; THP-1 cell lysate; 0.2 mM, Lys2 site): 2.1%

Cc1cn(C2CCN(Cc3cccc(Oc4cccc(Cl)c4)n3)CC2)c(=O)[nH]c1=O
highest concentration tested (Thymidylate kinase (DTYMK, Homo sapiens, UniProt P23919); enzyme activity, inhibitor; no inhibition observed): > 40 µM

Cc1nc(S(=O)(=O)Nc2cccc(-n3nn[nH]c3=O)c2)c(Br)n1C
remaining activity (malate dehydrogenase; enzyme activity, inhibitor; 200 µM, pH 7.0, 1% DMSO, aggregation counter-screen): 97%

CC/C=C(\C)C=O
conversion (Uncharacterized protein PH0856 (Pyrococcus horikoshii, UniProt O58586); substrate; pH 7, 50 °C, anaerobic, shaking 300 rpm, with: NADPH): 36%

O=C(O)c1ccc([N+](=O)[O-])cc1
current density (BEST1 (Homo sapiens, UniProt O76090); whole-cell patch clamp; HEK293 transiently expressing channel; concentration not given, membrane potential 100 mV): 179 pA/pF and 154 pA/pF and 251 pA/pF and 110 pA/pF and 169 pA/pF and 83.3 pA/pF and 82.6 pA/pF

O=c1nc(SCc2cc(F)cc(C(F)(F)F)c2)nc(SCc2ccc3nc(Cl)ccc3c2)[nH]1
mean decatenated DNA (TOP2B (Homo sapiens, UniProt Q02880); decatenation; 7.8 µM): 91.9%

N[C@@H](CCC(=O)O)C(=O)O
mean current (glc-2 (Caenorhabditis elegans, UniProt Q17328, T283S); two-electrode voltage clamp; Xenopus laevis oocytes): 1.1 µA

C[S+](CC[C@H](N)C(=O)[O-])C[C@H]1O[C@@H](n2cnc3c(N)ncnc32)[C@H](O)[C@@H]1O (stereo partly shown)
apparent Km (KMT2C (Homo sapiens, UniProt Q8NEZ4); substrate, enzyme-coupled methylation; with: H3 peptide 400 µM): 15 ± 1.8 µM

Nc1nc2c(ncn2[C@@H]2O[C@H](COP(=O)(O)O)[C@@H](O)[C@H]2O)c(=O)[nH]1
reaction rate (GUK1 (Homo sapiens, UniProt Q16774, R41A); enzyme activity, NADH-coupled; 31.25 µM): 0.982 s⁻¹ and -0.301 s⁻¹ and 1.13 s⁻¹

N#CC(=Cc1cccc(O)c1)C(=O)NCc1ccco1
labelling (UCHL1; covalent, intact protein LC-MS; 12.5 µM): 13.2%

Cc1cc2nc3c(=O)[nH]c(=O)nc-3n(C[C@H](O)[C@H](O)[C@H](O)COP(=O)(O)OP(=O)(O)OC[C@H]3O[C@@H](n4cnc5c(N)ncnc54)[C@H](O)[C@@H]3O)c2cc1C
kcat (Acyl-coenzyme A oxidase acox-1.1 (acox-1.1, Caenorhabditis elegans, UniProt O62140); enzyme activity; holo enzyme, wild type, with: cpd in buffers before SEC, no incubation): 1.73 s⁻¹ and 1.49 s⁻¹ and 1.63 s⁻¹

C/C(CC1CC2=C(CC1(C)C)C(C)(C)CCC2)=N\NC(N)=S (stereo not shown)
inhibition (Trypanosoma cruzi; reporter translation, Renilla luciferase mRNA translation; cell-free extract; 40 µM; relative to: DMSO): 2.7%

Cc1cc(Oc2ncccc2CN2CCN(c3ccc(C(F)(F)F)cc3[N+](=O)[O-])CC2)ccc1-c1c(C)c(=O)[nH]c(=O)n1C
selectivity ratio (ADRA2C; binding, radioligand binding; with: [3H]rauwolscine; relative to: Ki alpha2B over Ki alpha2C): 3

Cn1ncc(S(=O)(=O)NCc2ccccc2Cn2cncn2)c1C(=O)O
remaining activity (malate dehydrogenase; enzyme activity, inhibitor; 200 µM, pH 7.0, 1% DMSO, aggregation counter-screen): 93%

CNCC[C@@H](Oc1ccccc1C)c1ccccc1
inhibition (Voltage-dependent P/Q-type calcium channel subunit alpha-1A; ion current, antagonist; HEK293; 3 µM): 27%

CN(C)CCCNc1nc(-c2cccc(-c3nc(NCCCN(C)C)c4ccccc4n3)n2)nc2ccccc12
IC50 (T1, G-quadruplex DNA (Homo sapiens); thiazole orange displacement, competitor, FID; 0.25 µM DNA, pH 7.4, 25 °C, KCl 100 mM, with: thiazole orange 0.50 µM): 154 nM

C=CC1=C(C)C2=Cc3c(C=C)c(C)c4[n]3[Fe]([Cl])[n]3c(c(C)c(CCC(=O)O)c3=CC3=NC(=C4)C(C)=C3CCC(=O)O)=CC1=N2
Kd (T2, G-quadruplex DNA, intermolecular, 8-nt strands; UV-vis titration, Hill fit; KCl 100 mM, apparent, with: hemin 2 µM): 2200 nM

CC(=O)Nc1ccc(C=C(C#N)C(=O)Nc2c(C)cc(C)cc2C)cc1
labelling (UCHL1; covalent, intact protein LC-MS; 12.5 µM): 14.1%

C[C@@H]1C[C@@]1(C(=O)O)C(=O)NCc1ccc(Cl)c(Cl)c1
remaining activity (malate dehydrogenase; enzyme activity, inhibitor; 200 µM, pH 7.0, 1% DMSO, aggregation counter-screen): 91%

CC(=O)N[C@@H](Cc1c[nH]cn1)C(=O)N[C@@H](CC(=O)O)C(=O)N1CCC[C@H]1C(=O)N1CCC[C@H]1C(=O)N[C@@H](CC(C)C)C(=O)N[C@@H](Cc1c[nH]cn1)C(=O)N[C@@H](CO)C(=O)N[C@H](C(=O)N[C@@H](C)C(N)=O)[C@@H](C)OP(=O)(O)O
binding entropy (PLK1 (Homo sapiens, UniProt P53350); polo-box domain binding, isothermal titration calorimetry; concentration not given, 25 °C): -22.5 cal/(mol·K)

Cc1cc(-c2ccnc3[nH]cc(F)c23)cc(F)c1[C@@]1(O)[C@H](C)CN(C(=O)CN)C[C@@H]1C
probe labelling inhibition (LATS1 (Homo sapiens, UniProt O95835); ATP/ADP probe binding, KiNativ; HEK293T lysate; 10 µM, Lys1 peptide ALYATKTLR): 96.7%

COc1ccccc1N1CCN(Cc2cccnc2Oc2ccc(-c3c(C)c(=O)[nH]c(=O)n3C)c(C)c2)CC1
selectivity ratio (ADRA2C; binding, radioligand binding; with: [3H]rauwolscine; relative to: Ki alpha2A over Ki alpha2C): 3

CCC(=O)N1CCc2cc(C(=O)CCl)ccc21
labelling (UCHL1; covalent, intact protein LC-MS; 12.5 µM): 12.6%

C[C@H](CCC(C)(C)O)[C@H]1CC[C@H]2[C@@H]3CC=C4C[C@@](C)(O)CC[C@]4(C)[C@H]3CC[C@]12C
current response (Glutamate NMDA receptor; GRIN1/GRIN2B (GRIN1/GRIN2B, Homo sapiens, UniProt Q05586+Q13224, L567A); positive allosteric modulator, two-electrode voltage clamp; Xenopus oocytes expressing GluN2B-L567A; 10 µM, 0.02% cremophor, with: 100 µM glutamate and glycine; relative to: without compound): 116 ± 4.2%

CC(Cl)C(=O)N(Cc1ccc(Cl)cc1)Cc1cnn(C)c1 (stereo not shown)
labelling (UCHL1; covalent, intact protein LC-MS; 12.5 µM): 11%

Nc1ncnc2c1ncn2[C@@H]1O[C@H](COP(=O)(O)CP(=O)(O)OP(=O)(O)O)[C@@H](O)[C@H]1O
calcium influx (P2X purinoceptor 1 (P2RX1, Homo sapiens, UniProt P51575, D170A); calcium influx; 3.16 µM; relative to: ionomycin response): 24.6% and 17% and 17.6% and 18.7%

O=[N+]([O-])c1cc(C(F)(F)F)ccc1NCc1ccsc1
TΔS (Endothelial PAS domain-containing protein 1, PAS-B domain (EPAS1, Homo sapiens, UniProt Q99814, N288Q); binding, ITC, reverse mode): 2.58 ± 0.12 kcal/mol

COc1cc(Nc2ncc3c(n2)-c2ccc(Cl)cc2C(c2c(F)cccc2OC)=NC3)ccc1C(=O)O
remaining activity (PKN1; kinase activity; 1 µM): 94%

CCc1oc2ccccc2c1C(=O)c1cc(Br)c(O)c(Br)c1
normalized urate uptake (SLC22A12 (Homo sapiens, UniProt Q96S37); inhibitor; HEK-293T; 100 µM, 10 min, 37 °C, with: [14C]urate 10 µM): 1.13e-06 and -0.000733 and 0.000732

CCCN1C[C@H](CSC)C[C@@H]2c3cccc4[nH]cc(c34)C[C@H]21
inhibition (Voltage-dependent P/Q-type calcium channel subunit alpha-1A; ion current, antagonist; HEK293; 3 µM): 2%

Cc1ccc2ncccc2c1NS(=O)(=O)c1cccc(Cl)c1O
remaining activity (malate dehydrogenase; enzyme activity, inhibitor; 200 µM, pH 7.0, 1% DMSO, aggregation counter-screen): 100%

Cc1cc(Oc2ncccc2CN2CCN(c3ccc([N+](=O)[O-])cc3C(F)(F)F)CC2)ccc1-c1c(C)c(=O)[nH]c(=O)n1C
selectivity ratio (ADRA2C; binding, radioligand binding; with: [3H]rauwolscine; relative to: Ki alpha2B over Ki alpha2C): 3

O=C1CCC(=O)N1CCS(=O)(=O)c1c(F)c(F)nc(N2CCCC2)c1F
labelling (UCHL1; covalent, intact protein LC-MS; 12.5 µM): 9.89%

O=C1NCCN1CCN1CCC(c2cn(-c3ccc(F)cc3)c3ccc(Cl)cc23)CC1
inhibition (Voltage-dependent P/Q-type calcium channel subunit alpha-1A; ion current, antagonist; HEK293; 30 µM): 99%

CCNC(=O)/C=C/c1cccc(Br)c1
remaining transport activity (SLC6A19 (Homo sapiens, UniProt Q695T7); inhibitor, FLIPR membrane potential; CHO-BC cells; 0.03 µM, unit not given; relative to: no inhibitor): 0.972

C[C@@H](c1ccc(-n2cnc3c(N)ncnc32)cc1)N1CCc2nn(C)c(Cc3ccccc3)c2C1=O
remaining binding (CDK13 (Homo sapiens, UniProt Q14004); KINOMEscan; 0.1 µM; relative to: DMSO): 45%

Nc1nc2c(ncn2[C@@H]2O[C@@H]3COP(=O)(O)O[C@H]4[C@@H](O)[C@H](n5cnc6c(=O)[nH]c(N)nc65)O[C@@H]4COP(=O)(O)O[C@H]3[C@H]2O)c(=O)[nH]1
binding enthalpy (ΔH) (Cell cycle histidine kinase CckA, DHp-CA domains (Caulobacter vibrioides, UniProt Q9X688); isothermal titration calorimetry; Caulobacter crescentus; concentration not given, 12 °C, with: AMPPNP 5 mM): 1 kcal/mol

Cn1c(=O)c2[nH]cnc2n(C)c1=O
inhibition (Voltage-dependent P/Q-type calcium channel subunit alpha-1A; ion current, antagonist; HEK293; 10 µM): -3%

CO[C@H]1O[C@H](COS(=O)(=O)O)[C@@H](O[C@@H]2O[C@@H](C(=O)O)[C@@H](O[C@H]3O[C@H](COS(=O)(=O)O)[C@@H](O[C@@H]4O[C@H](C(=O)O)[C@@H](O[C@H]5O[C@H](COS(=O)(=O)O)[C@@H](O)[C@H](O)[C@H]5NS(=O)(=O)O)[C@H](O)[C@H]4O)[C@H](OS(=O)(=O)O)[C@H]3NS(=O)(=O)O)[C@H](O)[C@H]2OS(=O)(=O)O)[C@H](O)[C@H]1NS(=O)(=O)O
binding enthalpy ΔH (Beta-2-glycoprotein 1, domain V (APOH, Homo sapiens, UniProt P02749, V266L); isothermal titration calorimetry; concentration not given, 298 K, with: 50 mM NaCl): -10.3 ± 0.188 kcal/mol

CC(=O)Nc1nc(-c2cccc3ccccc23)cs1
inhibition (Trypanosoma cruzi; reporter translation, Renilla luciferase mRNA translation; cell-free extract; 40 µM; relative to: DMSO): -6.2%

Excerpt of the above:
Nc1ncnc2c1ncn2[C@@H]1O[C@H](COP(=O)(O)CP(=O)(O)OP(=O)(O)O)[C@@H](O)[C@H]1O
calcium influx (P2X purinoceptor 1 (P2RX1, Homo sapiens, UniProt P51575, D170A); calcium influx; 3.16 µM; relative to: ionomycin response): 24.6% and 17% and 17.6% and 18.7%

O=[N+]([O-])c1cc(C(F)(F)F)ccc1NCc1ccsc1
TΔS (Endothelial PAS domain-containing protein 1, PAS-B domain (EPAS1, Homo sapiens, UniProt Q99814, N288Q); binding, ITC, reverse mode): 2.58 ± 0.12 kcal/mol

COc1cc(Nc2ncc3c(n2)-c2ccc(Cl)cc2C(c2c(F)cccc2OC)=NC3)ccc1C(=O)O
remaining activity (PKN1; kinase activity; 1 µM): 94%

CCc1oc2ccccc2c1C(=O)c1cc(Br)c(O)c(Br)c1
normalized urate uptake (SLC22A12 (Homo sapiens, UniProt Q96S37); inhibitor; HEK-293T; 100 µM, 10 min, 37 °C, with: [14C]urate 10 µM): 1.13e-06 and -0.000733 and 0.000732

CCCN1C[C@H](CSC)C[C@@H]2c3cccc4[nH]cc(c34)C[C@H]21
inhibition (Voltage-dependent P/Q-type calcium channel subunit alpha-1A; ion current, antagonist; HEK293; 3 µM): 2%

Cc1ccc2ncccc2c1NS(=O)(=O)c1cccc(Cl)c1O
remaining activity (malate dehydrogenase; enzyme activity, inhibitor; 200 µM, pH 7.0, 1% DMSO, aggregation counter-screen): 100%
